Measured values pooled from the literature.
Protocols differ between the studies behind these lines. Numbers after ± are the reported error.

With `CC(C)C[C@@H]1NC(=O)[C@H](CCCNC(=N)N)NC(=O)[C@@H]2CCCN2C(=O)[C@@H]2CSSC[C@H](NC(=O)CNC(=O)[C@@H]3CCCN3C(=O)[C@H](CCCCN)NC(=O)[C@H](CC(=O)O)NC(=O)[C@@H](NC(=O)CN)C(C)C)C(=O)N[C@@H](CCCNC(=N)N)C(=O)N[C@@H](Cc3ccc(O)cc3)C(=O)N[C@@H](CC(C)C)C(=O)N[C@@H](Cc3ccccc3)C(=O)NCC(=O)NCC(=O)N[C@H]3CSSC[C@H](NC(=O)CNC1=O)C(=O)N[C@@H](CCCCN)C(=O)NCC(=O)N[C@@H](CCCCN)C(=O)NCC(=O)N[C@@H](Cc1c[nH]cn1)C(=O)N[C@@H](CC(=O)O)C(=O)N[C@@H](Cc1ccc(O)cc1)C(=O)N[C@H](C(=O)N[C@@H](C)C(=O)N[C@@H](Cc1c[nH]c4ccccc14)C(=O)N[C@@H](CC(=O)O)C(=O)NCC(=O)N[C@H](C(=O)N[C@@H](Cc1ccccc1)C(=O)N[C@@H](CO)C(=O)N[C@@H](CC(=O)O)C(=O)O)[C@@H](C)O)CSSC[C@H](NC(=O)[C@H](CC(=O)O)NC(=O)[C@H](CC(=O)O)NC(=O)[C@H](CC(=O)O)NC(=O)[C@H](CO)NC(=O)[C@H](CCCCN)NC3=O)C(=O)N2` the activation V0.5 was 5.8 ± 2.2 mV (measured: compound-sensitive delayed rectifier K current; mouse small DRG neurons; 1 µM).
`CC[C@H](C)[C@H](NC(=O)[C@@H](NC(=O)[C@H](C)NC(=O)[C@@H]1CCCN1C(=O)[C@H](CO)NC(=O)[C@@H](N)CC(C)C)C(C)C)C(=O)N[C@@H](C)C(=O)N[C@@H](CO)C(=O)N[C@@H](CC(C)C)C(=O)N[C@H](C(=O)NCC(N)=O)C(C)C` has an EC50 of 113 nM (Drosophila melanogaster; calcium response, calcium imaging; class IV da neurons, ppk1.9-Gal4 UAS-GCaMP6f).
`CO[P@@](=O)(Oc1ccccc1)Oc1ccc([N+](=O)[O-])cc1` gave a Km of 61 ± 7 µM (had (Sphingobium sp. TCM1, UniProt A0A077JBW9); p-nitrophenyl substrate hydrolysis, substrate).
For `[N-]=[N+]=N[C@]1(CO)O[C@@H](n2ccc(N)nc2=O)C(F)(F)[C@@H]1O`, the EC50 was 600 ± 80 nM (Zaire ebolavirus; viral replication; Makona).
`CC[C@H](C)[C@H](NC(=O)[C@H](Cc1ccccc1)NC(=O)[C@H](CC(=O)O)NC(=O)[C@H](CCCCN)NC(=O)[C@H](C)NC(=O)[C@H](CCCCN)NC(=O)[C@H](CC(N)=O)NC(=O)[C@H](CC(C)C)NC(=O)[C@H](Cc1c[nH]c2ccccc12)NC(=O)[C@H](CCC(=O)O)NC(=O)[C@H](CCCCN)NC(=O)[C@@H](NC(=O)CNC(=O)[C@H](C)N)[C@@H](C)O)C(=O)N[C@@H](CCCCN)C(=O)N[C@@H](CCC(=O)O)C(=O)N[C@@H](CCCCN)C(=O)NCC(=O)N[C@@H](CC(C)C)C(=O)N[C@@H](CCC(=O)O)C(=O)N[C@@H](CCSC)C(=O)N[C@@H](CC(C)C)C(=O)N[C@@H](CO)C(=O)N[C@@H](C)C(=O)N[C@@H](C)C(=O)N[C@@H](C)C(=O)N[C@@H](CC(N)=O)C(=O)N[C@@H](C)C(=O)N[C@@H](C)C(=O)N[C@@H](CC(C)C)C(=O)N[C@@H](CC(N)=O)C(=O)O` gave a PD50 of > 50 nmol/g (Lucilia cuprina; thorax injection, 1 h).
For `CC(C)C[C@H](NC(=O)[C@H](CCCCN)NC(=O)[C@H](Cc1c[nH]c2ccccc12)NC(=O)[C@H](CCCCN)NC(=O)[C@@H]1CSSC[C@@H]2NC(=O)[C@H](CCC(=O)O)NC(=O)[C@H](CC(N)=O)NC(=O)[C@H](CCCCN)NC(=O)CNC(=O)[C@@H]3CCCN3C(=O)[C@H]([C@@H](C)O)NC(=O)[C@@H]3CSSC[C@H](NC(=O)[C@H](C(C)C)NC(=O)[C@H](CCCNC(=N)N)NC(=O)[C@H](CC(N)=O)NC(=O)[C@@H]4CCCN4C(=O)[C@H](CSSC[C@H](NC(=O)[C@H](C)N)C(=O)N[C@@H](CCCCN)C(=O)NCC(=O)N[C@@H](C(C)C)C(=O)N[C@@H](Cc4ccccc4)C(=O)N[C@@H](CC(=O)O)C(=O)N[C@@H](C)C(=O)N3)NC2=O)C(=O)N[C@@H](CO)C(=O)N[C@@H](CC(=O)O)C(=O)N[C@@H](CCCCN)C(=O)N[C@@H](Cc2c[nH]cn2)C(=O)N[C@@H](CCCCN)C(=O)N[C@@H](Cc2c[nH]c3ccccc23)C(=O)N1)C(N)=O`, the inhibition was 15.7 ± 2.8% (Nav1.5 (human); sodium current, inhibitor, two-electrode voltage clamp; Xenopus laevis oocytes; 1 µM, pH 7.4, holding potential -90 mV).
`O=c1ccn(C2OC(F)(CO)C(O)C2O)c(=O)[nH]1` (stereo not shown) — result for replicon activity: “inhibited” (Lassa virus; Gaussia luciferase reporter; clade IV; concentration not given, minigenome with NP and L).
For `CC[C@H](C)[C@H](NC(=O)CNC(=O)[C@H](CC(C)C)NC(=O)CNC(=O)[C@H](CCCCN)NC(=O)[C@H](CCC(=O)O)NC(=O)[C@H](CCCCN)NC(=O)[C@@H](NC(=O)[C@H](Cc1ccccc1)NC(=O)[C@H](CC(=O)O)NC(=O)[C@H](CCCCN)NC(=O)[C@H](C)NC(=O)[C@H](CCCCN)NC(=O)[C@H](CC(N)=O)NC(=O)[C@H](CC(C)C)NC(=O)[C@H](Cc1c[nH]c2ccccc12)NC(=O)[C@H](CC(=O)O)NC(=O)[C@H](CCCCN)NC(=O)[C@@H](NC(=O)CNC(=O)[C@H](C)N)[C@@H](C)O)[C@@H](C)CC)C(=O)N[C@@H](CC(C)C)C(=O)N[C@@H](CO)C(=O)N[C@@H](C)C(=O)N[C@@H](C)C(=O)N[C@@H](C)C(=O)N[C@@H](CC(N)=O)C(=O)N[C@@H](C)C(=O)N[C@@H](C)C(=O)N[C@H](C(=O)N[C@@H](CC(N)=O)C(=O)O)[C@@H](C)CC`, the LD50 was > 50 nmol/g (Lucilia cuprina; thorax injection, 24 h).
The EC50 of `CC[C@H](C)[C@H](NC(=O)[C@H](C)NC(=O)[C@H](CCC(N)=O)NC(=O)[C@@H](NC(=O)[C@@H](NC(=O)[C@@H]1CCCN1C(=O)[C@@H]1CCCN1C(=O)[C@@H](NC(=O)[C@H](CCSC)NC(=O)[C@H](CC(C)C)NC(=O)[C@H](CC(C)C)NC(=O)[C@H](CO)NC(=O)CNC(=O)[C@H](CC(C)C)NC(=O)[C@@H](NC(=O)[C@H](CC(C)C)NC(=O)[C@H](CC(C)C)NC(=O)[C@@H]1CCCN1C(=O)[C@H](CC(C)C)NC(=O)[C@@H](N)Cc1ccccc1)[C@@H](C)CC)[C@@H](C)O)C(C)C)[C@@H](C)CC)C(=O)N[C@@H](Cc1c[nH]cn1)C(=O)N[C@@H](CC(=O)O)C(=O)N[C@@H](C)C(=O)N[C@@H](CCC(N)=O)C(=O)N[C@@H](CCCNC(=N)N)C(N)=O` is reported as 1040 ± 15 nM (Sodium channel protein type 3 subunit alpha (SCN3A, Homo sapiens, UniProt Q9NY46); sodium current, agonist, whole-cell patch clamp; HEK293 stably expressing NaV1.3; 0.1% DMSO, hold -100 mV).
The LD50 of `CC[C@H](C)[C@H](NC(=O)[C@H](Cc1ccccc1)NC(=O)[C@H](CC(=O)O)NC(=O)[C@H](CCCCN)NC(=O)[C@H](C)NC(=O)[C@H](CCCCN)NC(=O)[C@H](CC(N)=O)NC(=O)[C@H](CC(C)C)NC(=O)[C@H](Cc1c[nH]c2ccccc12)NC(=O)[C@H](CCC(=O)O)NC(=O)[C@H](CCCCN)NC(=O)[C@@H](NC(=O)CNC(=O)[C@H](C)N)[C@@H](C)O)C(=O)N[C@@H](CCCCN)C(=O)N[C@@H](CCC(=O)O)C(=O)N[C@@H](CCCCN)C(=O)NCC(=O)N1CCC[C@H]1C(=O)NCC(=O)N[C@@H](CCSC)C(=O)N[C@@H](CC(C)C)C(=O)N[C@@H](CO)C(=O)N[C@@H](C)C(=O)N[C@@H](C)C(=O)N[C@@H](C)C(=O)N[C@@H](CC(N)=O)C(=O)N[C@@H](C)C(=O)N[C@@H](C)C(=O)N[C@@H](CC(C)C)C(=O)N[C@@H](CC(N)=O)C(=O)O` is reported as > 50 nmol/g (Lucilia cuprina; thorax injection, 24 h).
`CCC1C=C(C(=O)NC2(C(=O)O)CC2CC)C2CCC(=O)C2C1` (stereo not shown) gave a Kd of 48 nM (COI1/TIFY10A, with JAZ1 (Arabidopsis thaliana, UniProt O04197+Q9LMA8); binding, radioligand saturation binding; COI1-ASK1 complex; Arabidopsis thaliana proteins, together with: full-length JAZ1).
With `Cc1cccc(NC(=O)C[S+]([O-])c2nc(-c3ccccc3)cn2-c2ccc(Cl)cc2)c1C` (stereo not shown) the IC50 was 30200 nM (Middle East respiratory syndrome-related coronavirus; viral entry).
`CC[C@H](C)[C@@H]1NC(=O)[C@H](CCCNC(=N)N)NC(=O)[C@H](CO)NC(=O)[C@H](CCC(=O)O)NC(=O)[C@H](CC(=O)O)NC(=O)CNC(=O)CNC(=O)[C@H]([C@@H](C)O)NC(=O)[C@H](Cc2ccccc2)NC(=O)[C@H](CO)NC(=O)[C@H]([C@@H](C)O)NC(=O)[C@H](C)NC(=O)[C@@H]2CSSC[C@@H](C(=O)N[C@@H](Cc3ccc(O)cc3)C(=O)N[C@@H](Cc3ccccc3)C(=O)N[C@H](C(=O)N[C@H](C(=O)NCC(=O)O)[C@@H](C)O)[C@@H](C)O)NC(=O)[C@H]([C@@H](C)O)NC(=O)[C@H](CSSC[C@H](NC(=O)[C@H](CCC(=O)O)NC(=O)[C@H](CO)NC(=O)[C@H](CCCCN)NC(=O)[C@H](Cc3ccc(O)cc3)NC(=O)[C@@H]3CCCN3C(=O)[C@H](Cc3ccccc3)NC(=O)[C@H](CCCCN)NC(=O)[C@H](CCCNC(=N)N)NC(=O)[C@H](CCCCN)NC(=O)[C@H](CCCCN)NC(=O)[C@H](Cc3ccc(O)cc3)NC(=O)[C@@H]3CCCN3C(=O)[C@@H](NC(=O)[C@H](CC(=O)O)NC(=O)[C@H](CCCCN)NC(=O)[C@H](CCCCN)NC(=O)[C@@H](NC(=O)[C@@H](NC(=O)[C@@H](N)CCC(=O)O)C(C)C)[C@@H](C)CC)[C@@H](C)O)C(=O)N[C@@H](CC(C)C)C(=O)N[C@@H](CCCCN)C(=O)N[C@@H](C)C(=O)N2)NC(=O)[C@H](CCCCN)NC(=O)[C@H](Cc2ccccc2)NC(=O)[C@H](Cc2ccccc2)NC(=O)CNC(=O)[C@@H]2CCCN2C(=O)[C@H](CCCCN)NC(=O)CNC(=O)[C@H](CCC(=O)O)NC(=O)[C@H](CCC(N)=O)NC1=O` has a Hill slope of 1.18 ± 0.03 (Potassium voltage-gated channel subfamily KQT member 4 (KCNQ4, Homo sapiens, UniProt P56696); ion current, whole-cell patch clamp; HEK293T cells).

Excerpt of the above:
For `CC[C@H](C)[C@H](NC(=O)CNC(=O)[C@H](CC(C)C)NC(=O)CNC(=O)[C@H](CCCCN)NC(=O)[C@H](CCC(=O)O)NC(=O)[C@H](CCCCN)NC(=O)[C@@H](NC(=O)[C@H](Cc1ccccc1)NC(=O)[C@H](CC(=O)O)NC(=O)[C@H](CCCCN)NC(=O)[C@H](C)NC(=O)[C@H](CCCCN)NC(=O)[C@H](CC(N)=O)NC(=O)[C@H](CC(C)C)NC(=O)[C@H](Cc1c[nH]c2ccccc12)NC(=O)[C@H](CC(=O)O)NC(=O)[C@H](CCCCN)NC(=O)[C@@H](NC(=O)CNC(=O)[C@H](C)N)[C@@H](C)O)[C@@H](C)CC)C(=O)N[C@@H](CC(C)C)C(=O)N[C@@H](CO)C(=O)N[C@@H](C)C(=O)N[C@@H](C)C(=O)N[C@@H](C)C(=O)N[C@@H](CC(N)=O)C(=O)N[C@@H](C)C(=O)N[C@@H](C)C(=O)N[C@H](C(=O)N[C@@H](CC(N)=O)C(=O)O)[C@@H](C)CC`, the LD50 was > 50 nmol/g (Lucilia cuprina; thorax injection, 24 h).
